Measurements gathered from unrelated publications.
Lines come from different studies, so protocols differ.
Cell line: Vero E6

| SMILES | test | setting | quantity | value |
| --- | --- | --- | --- | --- |
| CC(C)(C)NCc1ccc(Nc2ccnc3cc(Cl)ccc23)cc1O | cell number | 40 (unit not given) | CC50 | > 2.5 µM |
| NCC(=O)Nc1ccc(-n2nc(C(F)(F)F)cc2-c2ccc3c(ccc4ccccc43)c2)cc1 | MTT | 8 h | highest non-cytotoxic concentration | < 3 µM |
| Cc1oc(-c2ccccc2)nc1CCC(=O)c1ccc(CC2SC(=O)NC2=O)cc1 (centres unmarked) | – | 3 (unit not given) | CC50 | 34.7 µM |
| CC(C)CC(NC(=O)OCc1ccccc1)C(=O)NC(C(=O)NCC(=O)C=[N+]=[N-])C(C)C (centres unmarked) | cell number | 40 (unit not given) | CC50 | > 2.5 µM |
| CCN(CCO)CCCC(C)Nc1ccnc2cc(Cl)ccc12 (centres unmarked) | – | concentration not given, 4 (unit not given), added: verapamil | unbound fraction in cells | 0.00024 |
| CC(C)(C)NC(=O)N[C@H](C(=O)N1C[C@H]2[C@@H]([C@H]1C(=O)NC(CC1CCC1)C(=O)C(N)=O)C2(C)C)C(C)(C)C (some centres unmarked) | cell viability, MTT | 48 (unit not given) | CC50 | > 50 µM |
| Cn1c(=O)c2c(nc(C=Cc3cccc(Cl)c3)n2C)n(C)c1=O | cell number | 40 (unit not given) | CC50 | ~2.5 µM |
| Cc1nn(-c2ccc(Cl)cc2)c2c1C(c1ccc(I)cc1)C(C#N)=C(N)O2 (centres unmarked) | MTT | 25 µM | viability | 58.8% |
| COc1ccc2c(Sc3ccc(Cl)cc3)c(C(=O)NCCCN3CCCCC3)[nH]c2c1 | cytotoxicity, CellTiter-Glo | retest 8-point, no virus | AC50 | 14.1 µM |
| Cc1nn(-c2ccc(Cl)cc2)c2c1C(c1ccc(-c3ccccc3)cc1)C(C#N)=C(N)O2 (centres unmarked) | MTT | 25 µM | viability | 54.1% |
| O=C(NCCCN1CCCCCC1)c1ccc2c(c1)sc1nc(-c3ccccc3)cn12 | cytotoxicity, CellTiter-Glo | retest 8-point, no virus | AC50 | 14.1 µM |
| O=C(/C=C/c1ccc(O)c(O)c1/C=C/c1ccc(O)c(O)c1)O[C@H](Cc1ccc(O)c(O)c1)C(=O)O | – | 25 µM | cytotoxicity | 0% |
| Fc1ccc(-c2ccc(CN3CCN(c4cccc5ccoc45)CC3)[nH]2)cc1 | cell number | 40 (unit not given) | CC50 | > 2.5 µM |
| C[C@H](CCC(=O)O)[C@H]1CC[C@H]2[C@@H]3[C@@H](O)C[C@@H]4C[C@H](O)CC[C@]4(C)[C@H]3CC[C@]12C | cytotoxicity, MTT | 24 h | IC50 | > 100 µM |
| COc1cccc(-c2ccc(CN3CCCC(c4nc5ccc(C)cc5c(=O)[nH]4)C3)cc2)c1 (centres unmarked) | cytotoxicity, CellTiter-Glo | retest 8-point, no virus | AC50 | 28.2 µM |
| C=C[C@@](C)(/C=C/c1ccc(O)cc1)CCC=C(C)C | – | 200 µM | cytotoxicity | 25% |
| CCN(CC)CCCC(C)Nc1ccnc2cc(Cl)ccc12 (centres unmarked) | – | added: verapamil | intracellular fraction | 0.602 |
| CC(C)(C)[C@@H]1NC(=O)O[C@@H]2CCC[C@H]2OC/C=C/C(F)(F)c2nc3ccccc3nc2O[C@@H]2C[C@@H](C(=O)N[C@]3(C(=O)NS(=O)(=O)C4(C)CC4)C[C@H]3C(F)F)N(C2)C1=O | cell viability, MTT | 48 (unit not given) | CC50 | > 50 µM |
| COc1cccc2c(N3CCc4ccccc4C3C)nc(Nc3ccc(F)cc3C)nc12 (centres unmarked) | cell number | 40 (unit not given) | CC50 | > 2.5 µM |
| COc1ccc(C[C@@H]2c3cc(Oc4cc(C[C@@H]5c6cc(O)c(OC)cc6CCN5C)ccc4O)c(OC)cc3CCN2C)cc1 | – | 100 µM | cytotoxicity | 0% |
| COc1ccc2c(O[C@@H]3C[C@H]4C(=O)N[C@]5(C(=O)NS(=O)(=O)C6CC6)C[C@H]5/C=C\CCCCN(C)C(=O)[C@@H]4C3)cc(-c3nc(C(C)C)cs3)nc2c1C | cell viability, MTT | 48 (unit not given) | CC50 | 2.1 µM |
| CC(C)=CCN1Cc2cc(Cl)cc3[nH]c(=S)n(c23)C[C@@H]1C | cell number | 40 (unit not given) | CC50 | > 2.5 µM |
| O=C(O[C@@H]1Cc2c(O)cc(O)cc2O[C@@H]1c1cc(O)c(O)c(O)c1)c1cc(O)c(O)c(O)c1 | – | 200 µM | cytotoxicity | 100% |
| CCC(CC)COC(=O)[C@H](C)N[P@](=O)(OC[C@H]1O[C@@](C#N)(c2ccc3c(N)ncnn23)[C@H](O)[C@@H]1O)Oc1ccccc1 | – | added: verapamil | intracellular fraction | 0.03 |
| CC(C)=CCc1c(O)ccc(C(=O)/C=C/c2ccc(O)cc2)c1O | – | 12.5 µM | cytotoxicity | 0% |
| CC(C)(O)c1ccc2c(c1)C(=CCCN1CCC(O)(c3ccc(Cl)cc3)C(C)(C)C1)c1cccnc1CO2 (centres unmarked) | cell number | 40 (unit not given) | CC50 | > 2.5 µM |
